Measured values pooled from the literature.
Compare with care: the assays were run in different laboratories. ± marks the error that the study gave.
Organism: Escherichia coli

CC(C)C[C@@H](NC(=O)CNC(=O)[C@@H](CCCCN)NC(=O)[C@@H](CC(C)C)NC(=O)[C@@H](CCCCN)NC(=O)[C@@H](CCCNC(=N)N)NC(=O)[C@@H](CC(C)C)NC(=O)[C@@H](CC(C)C)NC(=O)[C@@H](CCCNC(=N)N)NC(=O)[C@H](N)CCCNC(=N)N)C(=O)N[C@H](CCCCN)C(=O)N[C@H](CCCCN)C(=O)N[C@H](Cc1ccc(O)cc1)C(=O)N[C@H](CC(C)C)C(=O)N[C@H](Cc1ccc(O)cc1)C(=O)N[C@H](Cc1ccccc1)C(=O)N[C@H](CCCCN)C(=O)N[C@H](CC(C)C)C(=O)N[C@H](CCC(N)=O)C(=O)N[C@H](CC(C)C)C(=O)N[C@H](CC(C)C)C(=O)N[C@H](CCCCN)C(=O)N[C@H](CCCCN)C(N)=O  MIC (KCTC 1682, Mueller-Hinton broth; added: 1 mM MgCl2): 8 µM
CC[C@H](C)[C@H](NC(=O)CNC(=O)[C@H](CC(=O)O)NC(=O)[C@H](CCCNC(=N)N)NC(=O)[C@@H](NC(=O)[C@H](CC(N)=O)NC(=O)[C@H](CCCNC(=N)N)NC(=O)CNC(=O)[C@@H](NC(=O)[C@H](CCCCN)NC(=O)[C@H](CCC(=O)O)NC(=O)[C@@H](NC(=O)[C@H](CCCCN)NC(=O)[C@H](CCCCN)NC(=O)[C@H](Cc1ccccc1)NC(=O)[C@@H](NC(=O)[C@H](CCCCN)NC(=O)[C@H](Cc1c[nH]c2ccccc12)NC(=O)[C@@H](N)CCC(=O)O)[C@@H](C)CC)[C@@H](C)CC)C(C)C)C(C)C)C(=O)N[C@H](C(=O)N[C@@H](CCCCN)C(=O)N[C@@H](C)C(=O)NCC(=O)N1CCC[C@H]1C(=O)N[C@@H](C)C(=O)N[C@H](C(=O)N[C@@H](C)C(=O)N[C@H](C(=O)N[C@H](C(=O)NCC(=O)N[C@@H](CCC(N)=O)C(=O)N[C@@H](C)C(=O)N[C@@H](C)C(=O)N[C@H](C(=O)N[C@H](C(=O)N[C@H](C(=O)N[C@@H](CCCCN)C(N)=O)C(C)C)C(C)C)[C@@H](C)O)C(C)C)C(C)C)C(C)C)[C@@H](C)CC  MIC (KCTC 1682, Mueller-Hinton broth; 16 h, 37 °C; growth inhibition over 99%): 8 µM
CC1(C)SC2C(NC(=O)C(NC(=O)C3=C(O)CNC3=O)c3ccccc3)C(=O)N2C1C(=O)O (centres unmarked)  MIC (broth microdilution; isolate IU, CTX-M-14, TEM-1; no clavulanic acid): > 200 µg/mL
C[C@H]1[C@H](NC(=O)/C(=N\OC(C)(C)C(=O)O)c2csc(N)n2)C(=O)N1S(=O)(=O)O  MIC (agar dilution; 08-85 mcr-1): 4 µg/mL
CC1(C)CC[C@]2(C(=O)O)CC[C@]3(C)C(=CC[C@@H]4[C@@]5(C)CC[C@H](O)C(C)(C)[C@@H]5CC[C@]43C)[C@@H]2C1  MIC (E4, NDM-5/OXA-1): 256 µg/mL
CN1C(=O)Cc2ccc(F)c(CCNC[C@H]3CN(c4ccc5c(n4)NC(=O)CO5)C(=O)O3)c21  MIC (ATCC 25922): 0.03 µg/mL
CCCCC(=O)N1C(=O)/C(=C(/C)O)C(=O)C1CC(C)C (centres unmarked)  MIC (K12 ΔtolC): 6.25 µg/mL
C[C@@H](O)[C@H]1C(=O)N2C(C(=O)O)=C(S[C@@H]3CN[C@H](C(=O)N(C)C)C3)[C@H](C)[C@H]12  MIC (DH5α expressing KPC-136): 1 µg/mL
O=C(NC1CCCCC1)C(CCc1ccccc1)N(CCc1c[nH]cn1)C(=O)c1ccccc1 (centres unmarked)  MIC (TolC): 128 µM
CC[C@H](C)[C@H](NC(=O)[C@H](CCCCN)NC(=O)[C@@H](NC(=O)[C@H](Cc1ccc(O)cc1)NC(=O)[C@H](CCCCN)NC(=O)[C@H](CCCCN)NC(=O)CNC(=O)[C@H](CCCCN)NC(=O)[C@@H](NC(=O)[C@H](C)NC(=O)[C@H](CC(C)C)NC(=O)[C@H](Cc1c[nH]c2ccccc12)NC(=O)CNC(=O)[C@@H](NC(=O)[C@H](Cc1ccccc1)NC(=O)[C@H](CCCCN)NC(=O)[C@H](CC(C)C)NC(=O)[C@H](Cc1ccccc1)NC(=O)[C@H](C)NC(=O)CNC(=O)[C@@H](N)CCSC)C(C)C)[C@@H](C)O)C(C)C)C(=O)N[C@@H](C)C(=O)N[C@@H](Cc1c[nH]c2ccccc12)C(=O)N[C@@H](CC(=O)O)C(=O)N[C@@H](Cc1c[nH]cn1)C(=O)N[C@@H](CCCCN)C(=O)NCC(=O)N[C@H](C(=O)N[C@H](C(=O)N[C@@H](CCSC)C(=O)N[C@@H](CCCCN)C(=O)N[C@@H](Cc1c[nH]c2ccccc12)C(=O)N[C@@H](CC(C)C)C(=O)N[C@@H](CC(N)=O)C(=O)N[C@@H](C)C(=O)NCC(=O)N[C@@H](CCC(N)=O)C(=O)N[C@H](C(=O)N[C@@H](Cc1ccccc1)C(=O)N[C@H](C(=O)N[C@@H](Cc1c[nH]c2ccccc12)C(=O)N[C@H](C(=O)N[C@@H](Cc1ccc(O)cc1)C(=O)N[C@@H](CCC(=O)O)C(=O)N[C@@H](CCC(N)=O)C(=O)N[C@H](C(=O)N[C@@H](CCCCN)C(=O)N[C@@H](CCCCN)C(=O)N[C@@H](CC(C)C)C(=O)N[C@@H](Cc1c[nH]c2ccccc12)C(=O)N[C@H](C(=O)O)[C@@H](C)O)[C@@H](C)CC)C(C)C)[C@@H](C)O)[C@@H](C)O)[C@@H](C)CC)[C@@H](C)O  MIC (DH5α; 37 °C, non-formylated synthetic): > 62.5 µg/mL
CC1(C)SC2C(NC(=O)C(NC(=O)C3=C(O)C(Cc4ccccc4)NC3=O)c3ccccc3)C(=O)N2C1C(=O)O (centres unmarked)  MIC (broth microdilution; Keio mutant JW5195-1; 18 h): 25 µg/mL
CC[C@H](C)[C@H](NC(=O)[C@H](CCCNC(=N)N)NC(=O)[C@H](CCC(N)=O)NC(=O)[C@@H](NC(=O)[C@@H](NC(=O)[C@H](CCCNC(=N)N)NC(=O)[C@@H](N)CCCCN)[C@@H](C)CC)C(C)C)C(=O)N[C@@H](CCCCN)C(=O)N[C@@H](CC(=O)O)C(=O)N[C@@H](Cc1ccccc1)C(=O)N[C@@H](CC(C)C)C(=O)N[C@@H](C)C(N)=O  MIC (broth microdilution; K12; 16 h, 37 °C): 140 ± 100 µM
N=C(N)NCCC[C@H](NC(=O)[C@H](Cc1c[nH]c2ccccc12)NC(=O)[C@@H](N)CCCNC(=N)N)C(=O)N[C@@H](Cc1c[nH]c2ccccc12)C(=O)N[C@@H](CCC(N)=O)C(=O)N[C@@H](Cc1ccccc1)C(=O)N[C@@H](CCC(N)=O)C(=O)N[C@@H](Cc1ccccc1)C(=O)N[C@@H](CCCCN)C(N)=O  MIC (broth microdilution, optical density): 4.8 µM
CC[C@H](C)[C@H](NC(=O)[C@H](CC(C)C)NC(=O)[C@H](CCCNC(=N)N)NC(=O)[C@@H](N)CCCNC(=N)N)C(=O)N[C@@H](CCCNC(=N)N)C(=O)N[C@@H](CCCCN)C(=O)N[C@@H](CC(C)C)C(=O)N[C@@H](CCCCN)C(=O)NCC(=O)N[C@@H](CC(C)C)C(=O)N[C@@H](CCCCN)C(=O)N[C@@H](CCCCN)C(=O)N[C@@H](Cc1ccc(O)cc1)C(=O)N[C@@H](CC(C)C)C(=O)N[C@@H](Cc1ccc(O)cc1)C(=O)N[C@@H](Cc1ccccc1)C(=O)N[C@@H](CCCCN)C(=O)N[C@@H](CC(C)C)C(=O)N[C@@H](CCC(N)=O)C(=O)N[C@@H](CC(C)C)C(=O)N[C@@H](CC(C)C)C(=O)N[C@@H](CCCCN)C(=O)N[C@@H](CCCCN)C(N)=O  MIC (KCTC 1682, Mueller-Hinton broth; added: 1 mM MgCl2): 8 µM
Cc1cc(C(=O)Nc2ccc(C(=O)N[C@@H](CC(N)=O)C(=O)Nc3ccc(C(=O)Nc4ccc(C(=O)Nc5ccc(C(=O)O)cc5)c(O)c4OC(C)C)cc3)cc2)ccc1C#N  MIC (K12 ΔtolC): 0.03 µg/mL
CC[C@H](C)[C@H](N)C(=O)N[C@@H](CO)C(=O)N[C@@H](Cc1ccccc1)C(=O)N[C@@H](CC(C)C)C(=O)NCC(=O)N[C@@H](CO)C(=O)N[C@@H](CCCCN)C(=O)N[C@H](C(=O)N[C@H](C(=O)N[C@H](C(=O)N[C@@H](CC(C)C)C(=O)N[C@@H](CC(C)C)C(=O)N[C@@H](CCCCN)C(=O)N[C@@H](CCCNC(=N)N)C(=O)N[C@@H](CCCNC(=N)N)C(=O)N[C@@H](CCCNC(=N)N)C(=O)N[C@@H](CCCNC(=N)N)C(=O)N[C@@H](CCCNC(=N)N)C(=O)N[C@@H](CCCNC(=N)N)C(=O)N[C@@H](CCCNC(=N)N)C(N)=O)C(C)C)C(C)C)C(C)C  MIC (checkerboard; 24 h, 37 °C, alone, rifampicin plate): 8 µM
Cc1ccc2[nH]c3c(c2c1)CCCC3NCCc1ccc(O)cc1 (centres unmarked)  MIC (broth microdilution; O-19592): > 128 µg/mL
CC[C@H](C)[C@H](NC(=O)[C@@H]1CCCN1C(=O)[C@@H]1CCCN1C(=O)[C@H](CCCNC(=N)N)NC(=O)[C@H](Cc1ccccc1)NC(=O)[C@@H](N)CCCNC(=N)N)C(=O)N[C@@H](CCCNC(=N)N)C(=O)N[C@@H](CCCNC(=N)N)C(=O)N1CCC[C@H]1C(=O)N1CCC[C@H]1C(=O)N[C@H](C(=O)N[C@@H](CCCNC(=N)N)C(=O)N1CCC[C@H]1C(=O)N1CCC[C@H]1C(=O)N[C@@H](Cc1ccccc1)C(=O)N[C@@H](Cc1ccc(O)cc1)C(=O)N1CCC[C@H]1C(=O)N1CCC[C@H]1C(=O)N[C@@H](Cc1ccccc1)C(=O)N[C@@H](CCCNC(=N)N)C(=O)N1CCC[C@H]1C(=O)N1CCC[C@H]1C(=O)N[C@H](C(=O)N[C@@H](CCCNC(=N)N)C(=O)N1CCC[C@H]1C(=O)N1CCC[C@H]1C(=O)N[C@H](C(=O)N[C@@H](Cc1ccccc1)C(=O)N1CCC[C@H]1C(=O)N1CCC[C@H]1C(=O)N[C@H](C(=O)N[C@@H](CCCNC(=N)N)C(=O)N1CCC[C@H]1C(=O)N1CCC[C@H]1C(=O)N[C@@H](Cc1ccccc1)C(=O)N[C@@H](CCCNC(=N)N)C(=O)N1CCC[C@H]1C(=O)N1CCC[C@H]1C(=O)N[C@@H](CC(C)C)C(=O)NCC(=O)N1CCC[C@H]1C(=O)N[C@@H](Cc1ccccc1)C(=O)N1CCC[C@H]1C(=O)O)[C@@H](C)CC)[C@@H](C)CC)[C@@H](C)CC)[C@@H](C)CC  MIC (broth dilution; K12 BW25113; 18 h, 37 °C): 2.6 µM
C[C@@H](O)[C@H]1C(=O)N2C(C(=O)O)=C(SCCN=CN)C[C@H]12  MIC (NCCP 16044 carbapenem-resistant, Mueller-Hinton broth; 16 h, 37 °C): 8 µM
CC[C@H](C)[C@H](NC(=O)[C@H](CCCCN)NC(=O)[C@@H]1CCCN1C(=O)[C@H](CCCNC(=N)N)NC(=O)[C@H](Cc1ccc(O)cc1)NC(=O)[C@H](CCCNC(=N)N)NC(=O)[C@H](CCCNC(=N)N)NC(=O)[C@@H](NC(=O)[C@H](CCCNC(=N)N)NC(=O)[C@H](CCCNC(=N)N)NC(=O)[C@H](CC(C)C)NC(=O)[C@H](Cc1ccccc1)NC(=O)[C@H](CCCNC(=N)N)NC(=O)[C@H](CO)NC(=O)[C@H](Cc1ccccc1)NC(=O)[C@@H](N)CCCNC(=N)N)C(C)C)C(=O)N[C@@H](CO)C(=O)N[C@@H](Cc1ccccc1)C(=O)N[C@@H](CC(N)=O)C(=O)N[C@@H](CC(C)C)C(=O)N[C@@H](CCC(=O)O)C(=O)N1CCC[C@H]1C(=O)N[C@@H](Cc1ccccc1)C(=O)N[C@@H](Cc1ccccc1)C(=O)N[C@@H](CCCCN)C(=O)N[C@@H](Cc1ccccc1)C(=O)O  MIC (broth microdilution; ATCC 25922, Mueller-Hinton broth; 16 to 20 h, 37 °C): 1.27 µM

Repeated from above:
CN1C(=O)Cc2ccc(F)c(CCNC[C@H]3CN(c4ccc5c(n4)NC(=O)CO5)C(=O)O3)c21  MIC (ATCC 25922): 0.03 µg/mL
CC[C@H](C)[C@H](N)C(=O)N[C@@H](CO)C(=O)N[C@@H](Cc1ccccc1)C(=O)N[C@@H](CC(C)C)C(=O)NCC(=O)N[C@@H](CO)C(=O)N[C@@H](CCCCN)C(=O)N[C@H](C(=O)N[C@H](C(=O)N[C@H](C(=O)N[C@@H](CC(C)C)C(=O)N[C@@H](CC(C)C)C(=O)N[C@@H](CCCCN)C(=O)N[C@@H](CCCNC(=N)N)C(=O)N[C@@H](CCCNC(=N)N)C(=O)N[C@@H](CCCNC(=N)N)C(=O)N[C@@H](CCCNC(=N)N)C(=O)N[C@@H](CCCNC(=N)N)C(=O)N[C@@H](CCCNC(=N)N)C(=O)N[C@@H](CCCNC(=N)N)C(N)=O)C(C)C)C(C)C)C(C)C  MIC (checkerboard; 24 h, 37 °C, alone, rifampicin plate): 8 µM
